Assay results from different studies.
Each numbered part is a random draw from the data of one study; scales do not carry over between parts. Substitutions count along the parent as printed.

Block 1
Target: CCNB1, cyclin fold, Cln2 fusion (human)
Method: yeast growth competition, sequencing
Medium: yeast
Notes: weak parent motif
Reference: not given
Reading: higher = stronger binding
Parent: CDC25A docking peptide (human); PPHRRRLLFACSP
`PPHRFRLLFACSP [R5F]`: “normalised enrichment score” 0.308.
`PPHRERLLFACSP [R5E]`: “normalised enrichment score” 0.15.
`PPHRRRLLFACSY [P13Y]` — result for “normalised enrichment score”: 0.716.
For `PPHRRRLLFACMP [S12M]`, “normalised enrichment score” read 0.649.
`PHHRRRLLFACSP [P2H]`: “normalised enrichment score” 0.851.
`PPHRRRLAFACSP [L8A]` — result for “normalised enrichment score”: 0.77.
Under “normalised enrichment score”, `PPGRRRLLFACSP [H3G]` is recorded as 0.661.

Block 2
Target: RING finger protein unkempt homolog, zinc fingers 1-6, GST-SBP tag (UNK, Homo sapiens, UniProt Q9C0B0, residues 30-357)
Sequence of UniProt Q9C0B0 (30-357, looked up): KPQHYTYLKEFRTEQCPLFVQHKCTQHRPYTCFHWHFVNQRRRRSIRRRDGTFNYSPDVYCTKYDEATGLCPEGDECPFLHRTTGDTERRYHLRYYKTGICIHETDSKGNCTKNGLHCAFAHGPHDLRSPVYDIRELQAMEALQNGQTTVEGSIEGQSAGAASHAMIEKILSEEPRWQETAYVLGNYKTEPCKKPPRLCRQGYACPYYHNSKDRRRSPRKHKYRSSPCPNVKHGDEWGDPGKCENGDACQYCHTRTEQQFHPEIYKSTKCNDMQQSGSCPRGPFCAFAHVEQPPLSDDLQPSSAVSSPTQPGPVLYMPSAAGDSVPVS
Method: RNA Bind-n-Seq
Form: RNA
Medium: in vitro
Concentration: not given
Notes: RNA with constant flanks, human and mouse sites, ends assumed
Reference: input RNA pool
Reading: higher = stronger binding
The bound/input enrichment of `GGGAGUUCUACAGUCCGACGAUCAGUGCAGAAGGGGACAGUCAGAUUGGUACUGUGGUAGAGCAUGUGGAAGCUGAGGCUGGAGCUGCCAUCAUGAAUGCAAAUGAAAAUAAUGUUGACAGCAUGAGUGGCACAGAGAAAGGACAACAGAGGAUUGAGCAUCA` is reported as 0.243 ratio.
`GGGAGUUCUACAGUCCGACGAUCCUAGGAGAGUCAAGUAAGAAAAAUAACGAAUCUAAGUGAUAAACAUUCAAGAAAUUCUCUAAAUAAGAGAUUUAUUUAUAAUUUUAAUAUCUCAGGGUUCUUUUUAGGUUUCCAGGGGAACAACAGAGGAUUGAGCAUCA` has a bound/input enrichment of 0.827 ratio.
`GGGAGUUCUACAGUCCGACGAUCGUUGUGCAUCAUUUAAAACAUUUUGUAUGUUUCUUCUUAUCUGUGUAUACAGUAUGUUCUUGAAUGAUGUUCAUUUGUCAGGAGAACUGUGAGAAAUAAACUAUGUGGAUACUGUCUGUUCAACAGAGGAUUGAGCAUCA` has a bound/input enrichment of 0.251 ratio.
The bound/input enrichment of `GGGAGUUCUACAGUCCGACGAUCGAGUGCCCCAUGUUCACCCCGCCUGGAGGAGAGACAGUUGAGCAGGUAAAGAUGCGCGGAAAGGAUUUCUUUGAUUUCAUUUGUCAGCUAAUCCUGGGCAAGGCAGGGCAGAGAGAAAGCCAACAGAGGAUUGAGCAUCA` is reported as 0.169 ratio.

Block 3
Target: Histone acetyltransferase KAT6A, both winged helices, GST fusion (KAT6A, Homo sapiens, UniProt Q92794, residues 1-181)
Method: protein binding microarray
Form: double-stranded DNA, one strand shown
Medium: in vitro
Concentration: not given
Notes: 8-mer, flanks averaged, mean of 2 arrays, mostly near background
Reference: not given
Reading: higher = stronger binding
Target sequence (chain): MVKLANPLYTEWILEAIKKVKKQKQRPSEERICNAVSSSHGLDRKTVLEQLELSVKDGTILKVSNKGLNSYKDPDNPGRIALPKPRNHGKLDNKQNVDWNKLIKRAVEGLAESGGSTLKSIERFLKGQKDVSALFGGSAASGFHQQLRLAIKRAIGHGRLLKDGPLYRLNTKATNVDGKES
`AATCTCGC` gave an E-score of 0.0543.
For `CGATAGCC`, the E-score was 0.137.
With `CCTCTTTC` the E-score was -0.273.
For `ACCGCCGC`, the E-score was 0.316.
The E-score of `AGTTCGCA` is reported as -0.00908.
For `AGGTGGGA`, the E-score was -0.226.
`ACTACTCG` gave an E-score of -0.0884.

Further values, each from its own experiment
`PhoQ, residues 284 288 289 292 302 303 SNSSNI` has a fold induction of 1.04 (PhoP, residues 12 14 15 18 19 SYFRT (Escherichia coli, UniProt P23836); Sort-seq, item: YFP reporter; E. coli; PhoQ-PhoP variant library, together with: 10 µM Mg2+; reference: high Mg2+ state, higher = stronger signaling).

For quick reference, copied from above (block 3):
For `CGATAGCC`, the E-score was 0.137.
